Published values of several laboratories.
A part holds a random share of what one study measured. Substitutions count along the parent as printed.

Series 1 — technique: RNA Bind-n-Seq; molecule type: RNA; sample: in vitro; tested at: 365 nM; reference: no-protein control; direction: higher = stronger binding
Target: RNA binding protein fox-1 homolog 2, RRM domain, GST-SBP tag (RBFOX2, Homo sapiens, UniProt O43251-10, residues 100-194)
Setting: natural RNA segment, single round, ends assumed
All sequences stand within: GGGAGUUCUACAGUCCGACGAUC … UGGAAUUCUCGGGUGCCAA
Target sequence (chain): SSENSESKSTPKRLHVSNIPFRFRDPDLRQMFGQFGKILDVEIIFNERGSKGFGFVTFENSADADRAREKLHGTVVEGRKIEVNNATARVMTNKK
Oligonucleotide | RBNS enrichment (R)
CUGUGAGGAGUUACGGAGAGGGCUUUGUCUCUAGAGCAGAAGAGAAUGAUGGGACGGCCUGAUGCUGUCAUGCUCUCCACUGCACCUGUGGCAGCCUCCUGAGAGCCACC | 0.569
UACCACGGCUACCAUGUGGAACCUUAACUUGCAGAAGGCUUGUUAACAAUUGUUUUGAGAGAGAUGGCUGGUCAUGCCACAGCUGCUGGGGACUCCGCCUACUCCAGCCC | 0.535
CUGCAACAGGAAGCAGGAAGGUUGCUCGCCCUGUUUCCAGAGAUUGCAAUAAAGCAGUGUGAGGGGAGCACGGGCCCCGUGUAUUUGUCGAGAGGAUGAAGGAAGGUUGC | 1.88
UACUGUAAUAUCAAAAUACUAUGUCGAAUUAUUUCAGAUGUUCAGAUUGAAUAGGGUAAAAGAAAGUCUUUAAAUGCUAUCGCAUCCUAGACCCUCUUCCCACCUACUAU | 0.241
CCAGAAAGCCUGACAUGAAGGAAGAGGAGACUCUUCGAGGAGCACUUUGGGUCCGGAGGGCGAGACUCCGGCAGACGCAUUCCCGGGCAGGUGACCAAGCACGGUCCCUC | 0.361
AAACCUUUCACUUUCCAAAGAGCUAGCCGUCCUCCACCCAGUACCAUGUCCUAGCCUGUCUGCAUUUGUUAGUGGUAAUAUUCUUUAUGUAUAAUAAAUUUUUAUACCCA | 2.56
UGUGCAAAGAAACUUUCUAACCCUUACCGGACACCGCACAGCUUCCUGCACUCAAGCCGCAGGGUAGUACAGUUUUACCACAGAGGGACUCUUGAGCAAUGGAGUCACGU | 0.483
UCUUACUGCUAAUUAAAACCUAAGCAAGAAGUCUCAUGUAAUUCUGAUAGCAGAAUUGCAUUGUGUGAACUGUGUAACUUUAGUAAUGUAAAUCAAGGAACAUCAGUUAA | 0.502
UGGGCCUCGCCUCUGUCCUCAGGUCCUCUCAGAGGCAGAUACCUAGGGGAGCUGCUGCUGCCUGCUCAUUCUAGCUUCCGAUUCCAUUCCCAGCCCCUGCGUUAAGGUCC | 0.416
CAGUUACUUAUGCUGAAGAUCCCUGUGCUAGGUUAGCCUUUAGAAGUUAGAGUUGUGGAAAGCAGUAUUGUUUUCUUCUCUAGUGAUUGUUACCCUACACAUUUCAUGGA | 0.271
GCAGGCUCUCCUGUCACCCCGCAUCACCUCACCCUUCUCUGUCCCUCAGCCUUCAGUCACAUUUAGUCAUGGUCUGCCUGUGAGCGCAGUGAGUUCUCUCCUGACAGCUG | 1.08
AUUUGCUUAGAUGGUGUUUGUGGGAUCACCUGCAGAUUUAAAGCCUACUCUGCCACAGACUCGAGUAAGAAAAUGUUCUCUUGAUGACACAGUGCUCCUACUCUAUCCAC | 0.367

Series 2 — target: CCNE1, cyclin fold, Cln2 fusion (human); technique: yeast growth competition, sequencing; sample: yeast; setting: strong parent motif; reference: not given; direction: higher = stronger binding
Starting sequence: CDKN1B docking peptide (human); PSACRNLFGPVDH
Change | normalised enrichment score
PSACRNLFGPVDK [H13K] | 3.31
PAACRNLFGPVDH [S2A] | 2.72
PSACENLFGPVDH [R5E] | 0.769
PSACVNLFGPVDH [R5V] | 0.768
YSACRNLFGPVDH [P1Y] | 3.03
PSACRNMFGPVDH [L7M] | 0.431
PSACRNLFGPVSH [D12S] | 2.91
PSAMRNLFGPVDH [C4M] | 0.703
PSCCRNLFGPVDH [A3C] | 3.96
PHACRNLFGPVDH [S2H] | 2.53
PSDCRNLFGPVDH [A3D] | 0.124
PSKCRNLFGPVDH [A3K] | 0.119
PSACRNLFLPVDH [G9L] | 1.02
PSACRNQFGPVDH [L7Q] | 0.182
PSACRNLFGPVDW [H13W] | 4.3

Series 3 — technique: protein-binding microarray; molecule type: double-stranded DNA, one strand shown; sample: in vitro; tested at: 2540 nM top; setting: 60-bp whole probe; together with: salmon DNA 0.4 mg/ml; reference: random background probes; direction: higher = stronger binding; all sequences stand within: GCCTAGCAC … GTCTTGATTCGCTTGACGCTGCTG
Target: Interferon regulatory factor 3, full length, phosphomimetic (IRF3, Homo sapiens, UniProt Q14653, residues 1-427, S386D/S396D/S398D/S402D/T404D/S405D)
Residues (chain): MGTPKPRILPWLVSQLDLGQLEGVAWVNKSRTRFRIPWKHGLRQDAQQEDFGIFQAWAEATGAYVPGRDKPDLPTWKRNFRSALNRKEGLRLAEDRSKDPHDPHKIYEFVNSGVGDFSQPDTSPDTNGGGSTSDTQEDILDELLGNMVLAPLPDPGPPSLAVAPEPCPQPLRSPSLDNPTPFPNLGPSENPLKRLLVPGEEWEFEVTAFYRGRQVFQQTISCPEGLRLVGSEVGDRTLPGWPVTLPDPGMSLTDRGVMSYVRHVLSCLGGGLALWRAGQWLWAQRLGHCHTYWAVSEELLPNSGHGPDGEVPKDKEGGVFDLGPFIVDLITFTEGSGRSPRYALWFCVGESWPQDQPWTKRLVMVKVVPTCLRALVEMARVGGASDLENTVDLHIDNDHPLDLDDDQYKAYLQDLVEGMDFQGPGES
Oligonucleotide | fitted relative affinity [z-score]
GTTGTTTTAAATTCTAATTAGTGCTAG | 1.85
TTAGAACTGGACTTTCGGTTAGTGCTA | 1.2
TTAGATTTCAGTATTGATTAGTGCTAG | 1.82
TAGTTTTCATTTTCTGAATGTGTGCTA | 5.92
GACGGTATCGGGTATCGCGACGTGCTA | 1.5
CGCTTTCTTTAACTCATTTTGTGCTAG | 1.33
TTAGATTTCAGTTTCGATCAGTGCTAG | 4.66
GAAGAACTGAGTATCGAGACGTGCTAG | -0.182
TTAGATCTCAGAATCGATTAGTGCTAG | 0.505
TTCCTTTCTCTTCCGTTAGCGTGCTAG | 5.16
TTAGGACTCGGTATCGGTTAGTGCTAG | 1.72
TCATGGATGTGTTTTAAACTGTGCTAG | -0.424
TACCTTAGGTTTTCTGGTTCCGTGCTA | 0.14
GACGATATGAGTCTCGAGACGTGCTAG | -0.196
GACGGTCGCCTTTTCCTGACGTGCTAG | 2.12
GACGGACTGGACTATCGGGAGGTGCTA | -0.553
TTAGATATCAGACTGGATGAGTGCTAG | 0.151
GACGATATCGGGTATTGAGACGTGCTA | 0.0733
GACGGACTCGGTTTCGGGACGTGCTAG | 2.86
AACGGACTGGACACTGGGGACGTGCTA | -0.557
TTAGGTATCCTTATCCTATAGTGCTAG | 5.75
GACGATTTCAGACTGGAGTCGTGCTAG | 1.2
CTGCTAGGGCACACAAGTCAGTGCTAG | -0.306
CAGATTTGGCATATCTATTTGTGCTAG | 0.618
GACGATCTCATACTGGAGACGTGCTAG | 0.565

Series 4 — technique: RNA Bind-n-Seq; molecule type: RNA; sample: in vitro; tested at: not given; setting: RNA with constant flanks, ends assumed; reference: input RNA pool; direction: higher = stronger binding
Target: RING finger protein unkempt homolog, zinc fingers 1-6, GST-SBP tag (UNK, Homo sapiens, UniProt Q9C0B0, residues 30-357)
Sequence of UniProt Q9C0B0 (30-357, looked up): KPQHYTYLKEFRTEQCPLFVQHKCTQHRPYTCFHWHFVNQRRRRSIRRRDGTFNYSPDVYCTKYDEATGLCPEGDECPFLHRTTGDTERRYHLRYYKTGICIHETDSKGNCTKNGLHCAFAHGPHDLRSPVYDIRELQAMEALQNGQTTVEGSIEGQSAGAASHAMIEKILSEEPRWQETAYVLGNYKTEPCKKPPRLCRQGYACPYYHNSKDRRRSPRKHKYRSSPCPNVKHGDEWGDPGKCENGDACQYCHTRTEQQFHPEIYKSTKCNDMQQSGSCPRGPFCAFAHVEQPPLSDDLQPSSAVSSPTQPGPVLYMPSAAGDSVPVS
All sequences stand within: GGGAGUUCUACAGUCCGACGAUC … CAACAGAGGAUUGAGCAUCA
Oligonucleotide | bound/input enrichment [ratio]
ACACCCCAGUGAGCAGUGAGUGAUUUUCCUUUAGUCACACGGUGGUUUUGCUUUGCCGUCCGCCGGUGAUGGAUAUAUAGGUCUUCAUCCUCCUUUAGGCUGUUUCUCUUCUUGUGUUUG | 0.334
AAGAGGAAGAAGGUUAAGUUGGCUGUGCUGAAAUACUAUAAGGUGGAUGAAAAUGGCAAAAUCCGCCGACUUCGUCGAGAGUGUCCUUCUGAUGAAUGUGGUGCUGGAGUUUUCAUGGGA | 0.261
UACGAAACAGUGGUUGGCCCUGGUGAUGUUCUUUACAUCCCAAUGUACUGGUGGCAUCACACCGAGUCAUUACUAAAUGGGGGGAUUACCAUCACUGUGAACUUCUGGUAUAAGGGGGCU | 0.101
CCCAGCACUUUGAUAAAGACUGUGGAUUGGUUGCUGGUGUUUUCCUUGUUCUUUUUAAUCCGUUUCAUUAUGUAUGCUACCAUCCGCACUGAGAGUAUUCGGUGGCUGAUUCCAGGACAA | 0.231
AUAUCUAUACACACAUGUGUGUUGUGUAUAUGCAUGUGUGUGUGUGCGUGUGUGUACCGUUUCCGCUCCAAGCCAAGCAAGUUUGUGUUUGGAUAGAGGGGAACUUAACUAUUAACUACA | 0.159
UUCCUUCUGCAUAAGGUUUUUGUAGUGUGAUGUCUUAAUCAUAGUCUACCAUCAAAUACUUCCGGAGUAUCCUUAAUGUUUAGAUAGAAUAUUAGCAGCAUGCAAUAAUUACAUCCUAAG | 6.5
AAUCUCAUGAAAGCAGAACAGAUGCAUCAAAGUUUUGUGGCUGAAACAAGUCAGCGCAUCCGUAAGUUACAGGAAGACACUUCUGCUCACCAGAAUGUUGUUGCUGAAACCUUAAGUGCC | 0.237
GAUUUUUAUUUUAUGUAUAUGAGUACACUGUAGCUGUCUUCAGACACACCAGAAGAGGGCACCGAAUCCCAUUACAGAUUAUUGAGAGCCACCAUGUGAUUACUGGGGAUUGAACUCAUG | 0.249
UUUAUAGAAAUCACCGAUGACCAGUUUGACUUUCAUACAUACUGUAUGAGGAAGAUCACCCUCCGAUCAUAUGUGGACUUAUUAAAACUAGAAGAUGUACUUCGACAGCAUCCAUUUUAC | 0.834
CGCACCACCAGAGGAAAGCGGAAGAGAGUUGAUGUGGAGGAGUCGGAGGCGAGCAGCAGUGUCCGCAUUUCCCACUCUGCCUCAGCCACGGGGAACGUGUGCAUUGAAGAGAUAGAUGUU | 0.281
AACACCAACACAGCAAUCGAGCUGAAACUAGUUCGUUUUCCUGAAGAUCUUGAGAAUGACAUCCGAACUUUCUUUCCUGAAUAUACCCAUCAGCUCUUUGGGGAUGAUGAAACUGCUUUC | 0.109
